Published values from different studies.
Parts stem from different laboratories: compare values within a part only. Substitutions count along the parent as printed.

Set 1
Target: ABI1, truncated, D143A, DHFR fusion (Arabidopsis thaliana)
Technique: DHFR PCA, deep sequencing
Sample: yeast
Notes: methotrexate growth selection, single substitutions
With: (+)-ABA 17 µM
Reference: wild-type fitted maximum
Direction: higher = stronger binding
Parent: PYL1, truncated, DHFR fusion (Arabidopsis thaliana); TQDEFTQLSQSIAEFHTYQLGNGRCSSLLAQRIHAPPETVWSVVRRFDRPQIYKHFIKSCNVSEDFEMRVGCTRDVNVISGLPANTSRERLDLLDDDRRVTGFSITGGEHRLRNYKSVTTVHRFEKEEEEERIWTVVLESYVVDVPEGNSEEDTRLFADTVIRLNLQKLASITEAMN; partner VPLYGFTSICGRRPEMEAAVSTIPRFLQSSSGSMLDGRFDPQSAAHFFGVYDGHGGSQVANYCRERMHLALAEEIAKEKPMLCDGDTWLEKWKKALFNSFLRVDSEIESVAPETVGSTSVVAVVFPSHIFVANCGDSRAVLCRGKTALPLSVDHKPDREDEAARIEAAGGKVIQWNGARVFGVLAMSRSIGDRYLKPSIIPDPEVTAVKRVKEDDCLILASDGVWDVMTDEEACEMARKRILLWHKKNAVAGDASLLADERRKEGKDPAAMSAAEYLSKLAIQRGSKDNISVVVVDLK
Substitution | relative binding score
V76A | 9.68%
T86C | 78.9%
T160S | 52.5%
R155K | 86.9%
W134F | 106%
A35R | -9.54%
E128D | 106%
T119M | 74.4%

Set 2
Target: CCNB3, cyclin fold, Cln2 fusion (human)
Technique: yeast growth competition, sequencing
Sample: yeast
Notes: weak parent motif
Reference: not given
Direction: higher = stronger binding
Parent: E2F2 docking peptide (human); LPAKRKLDLEGIG; partner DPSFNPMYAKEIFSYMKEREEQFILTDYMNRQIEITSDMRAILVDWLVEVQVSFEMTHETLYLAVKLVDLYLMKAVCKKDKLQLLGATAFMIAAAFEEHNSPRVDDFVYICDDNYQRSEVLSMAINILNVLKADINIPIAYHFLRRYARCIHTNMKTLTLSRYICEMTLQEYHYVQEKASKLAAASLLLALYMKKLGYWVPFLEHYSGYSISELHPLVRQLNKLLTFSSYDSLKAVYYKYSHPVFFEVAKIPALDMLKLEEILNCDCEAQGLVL
Substitution | normalised enrichment score
LPAKRKLDLAGIG [E10A] | 0.231
LPAKAKLDLEGIG [R5A] | 0.433
LPAKRKLDLEAIG [G11A] | 0.351
LPAKKKLDLEGIG [R5K] | 0.291
LPAARKLDLEGIG [K4A] | 1.41
LPAKRKLDAEGIG [L9A] | 0.0551
LPAKRKLDLEGAG [I12A] | 0.605

Set 3
Target: Interferon regulatory factor 7, full length, phosphomimetic (IRF7, Homo sapiens, UniProt Q92985, residues 1-503, S471D/S472D/S475D/S476D/S477D/S483D/S484D/S487D)
UniProt Q92985, sequence (whole entry, unmodified, looked up): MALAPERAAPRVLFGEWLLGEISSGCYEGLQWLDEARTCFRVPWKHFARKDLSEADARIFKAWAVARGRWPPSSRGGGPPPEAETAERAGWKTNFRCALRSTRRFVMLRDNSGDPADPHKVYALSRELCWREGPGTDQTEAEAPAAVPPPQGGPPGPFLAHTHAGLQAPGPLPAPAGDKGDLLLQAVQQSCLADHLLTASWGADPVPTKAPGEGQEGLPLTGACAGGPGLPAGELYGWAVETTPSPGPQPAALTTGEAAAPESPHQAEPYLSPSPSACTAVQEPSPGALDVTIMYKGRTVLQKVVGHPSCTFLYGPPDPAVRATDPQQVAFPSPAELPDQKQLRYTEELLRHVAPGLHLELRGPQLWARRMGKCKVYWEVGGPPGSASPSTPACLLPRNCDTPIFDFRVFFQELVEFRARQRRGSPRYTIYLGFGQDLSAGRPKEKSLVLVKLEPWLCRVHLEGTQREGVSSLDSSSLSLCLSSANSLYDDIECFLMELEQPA
Technique: protein-binding microarray
Form: double-stranded DNA, one strand shown
Sample: in vitro
Concentration: 2200 nM top
Notes: 60-bp whole probe
With: salmon DNA 0.4 mg/ml
Reference: random background probes
Direction: higher = stronger binding
All sequences stand within: GCCTAGCAC … GTCTTGATTCGCTTGACGCTGCTG
Strand | fitted relative affinity
GACGGTTCCGGTTTCGGGACGTGCTAG | 5.63 z-score
TCAGCTTTATGTGTAGGACTGTGCTAG | 0.433 z-score
GACGGTATTGGGACTGGGGACGTGCTA | -0.592 z-score
CTCACCGCTGGAGTTCTGCGGTGCTAG | -0.276 z-score
TTAGGTATCGGCCTCGGTTAGTGCTAG | 0.19 z-score
TTAGGTATCGACTGTCGGTTAGTGCTA | 0.331 z-score
CTGCCTGCTCAGACTGGGGCGTGCTAG | -0.169 z-score
GACGGTACCCTACTGCTGACGTGCTAG | 0.138 z-score
TTAGGTACCCTTCTCCTTTAGTGCTAG | 0.986 z-score
CCAGGCTGAAAGACCTCTGAGTGCTAG | -0.963 z-score
GACGTTCTCGGACTGGGGACGTGCTAG | -0.226 z-score
GACGATTTCAGCTCCGAGACGTGCTAG | 0.609 z-score
TTAGGTTTCCTTATCCTTTAGTGCTAG | 2.09 z-score
GACGGTCTCGGACTGGGGGCGTGCTAG | -0.00917 z-score
TTAGGTTCCCTTTTCCTTGAGTGCTAG | 2.64 z-score
TCAACTTTGGTTTGTACACTGTGCTAG | 1.09 z-score

Set 4
Target: Histone acetyltransferase KAT6A, winged helix 1, GST fusion (KAT6A, Homo sapiens, UniProt Q92794, residues 1-85)
Technique: protein binding microarray
Form: double-stranded DNA, one strand shown
Sample: in vitro
Concentration: not given
Notes: 8-mer, flanks averaged, mean of 2 arrays, mostly near background
Reference: not given
Direction: higher = stronger binding
Residues (chain): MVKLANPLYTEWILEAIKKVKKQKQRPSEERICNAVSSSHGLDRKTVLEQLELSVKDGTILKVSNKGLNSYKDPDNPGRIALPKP
Strand | E-score
ATATCTTG | -0.224
CATAGGCA | -0.0548
ATCGTCCA | -0.0454
GGCTAGCA | 0.0389
CAAGATAG | -0.0324
ACTAAGAA | -0.017
ACAACAAC | -0.171
ATTATCCG | 0.198
GAAGGACC | 0.0178
CACGACAC | 0.00715
CGGCCGAA | 0.348
ACGCGTTG | 0.339
CTCGTCCC | -0.00159
ACTCAACG | 0.0331
CGTATTTC | -0.104
TCAGCTAA | -0.231
ACACGCGA | 0.102
CTCAAGAC | -0.105
CGGTATAC | 0.236
CAAGGTAG | -0.214
GTGCCCAA | -0.0146
CGTCATAG | 0.093
AACCCTAC | -0.202
CCTAGGTA | -0.0768
CTGGCTGA | -0.227

Some of these lines once more (set 4):
Strand | E-score
ACAACAAC | -0.171
CCTAGGTA | -0.0768
CTGGCTGA | -0.227
ATATCTTG | -0.224
TCAGCTAA | -0.231
AACCCTAC | -0.202
CACGACAC | 0.00715
